Experimental data from different studies.
Numbered parts are unrelated; each lists some results of a single study. Several values in a cell are separate wells, animals, samples, runs or records.
Sequence of UniProt Q9UF33 (whole entry, looked up): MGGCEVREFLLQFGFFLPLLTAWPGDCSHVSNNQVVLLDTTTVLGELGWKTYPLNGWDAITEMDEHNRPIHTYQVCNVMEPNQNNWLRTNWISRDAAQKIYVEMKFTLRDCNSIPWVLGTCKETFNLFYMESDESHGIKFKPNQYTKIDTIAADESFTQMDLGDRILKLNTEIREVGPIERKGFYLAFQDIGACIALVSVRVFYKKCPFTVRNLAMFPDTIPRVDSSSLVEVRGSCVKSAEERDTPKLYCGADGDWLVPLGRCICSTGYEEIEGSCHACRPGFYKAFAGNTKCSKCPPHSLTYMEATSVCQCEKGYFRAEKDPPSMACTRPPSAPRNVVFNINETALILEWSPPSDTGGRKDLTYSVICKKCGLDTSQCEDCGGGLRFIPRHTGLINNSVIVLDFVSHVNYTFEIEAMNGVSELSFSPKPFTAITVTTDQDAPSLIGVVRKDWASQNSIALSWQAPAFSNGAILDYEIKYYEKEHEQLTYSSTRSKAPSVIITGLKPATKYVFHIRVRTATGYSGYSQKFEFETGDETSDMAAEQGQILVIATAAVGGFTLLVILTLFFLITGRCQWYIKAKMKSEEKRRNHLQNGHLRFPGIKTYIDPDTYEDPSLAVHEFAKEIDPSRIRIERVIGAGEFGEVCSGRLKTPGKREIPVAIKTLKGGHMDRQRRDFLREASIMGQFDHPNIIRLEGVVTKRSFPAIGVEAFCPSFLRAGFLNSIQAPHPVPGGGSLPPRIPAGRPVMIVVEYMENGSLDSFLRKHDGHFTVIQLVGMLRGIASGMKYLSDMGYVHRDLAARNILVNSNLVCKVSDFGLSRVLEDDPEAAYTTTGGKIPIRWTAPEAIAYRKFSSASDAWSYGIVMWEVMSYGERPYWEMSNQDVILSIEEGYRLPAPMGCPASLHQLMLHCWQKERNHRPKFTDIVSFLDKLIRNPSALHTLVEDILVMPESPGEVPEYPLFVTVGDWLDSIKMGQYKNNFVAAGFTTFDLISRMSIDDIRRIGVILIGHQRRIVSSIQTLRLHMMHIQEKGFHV
Sequence of UniProt P20794 (whole entry, looked up): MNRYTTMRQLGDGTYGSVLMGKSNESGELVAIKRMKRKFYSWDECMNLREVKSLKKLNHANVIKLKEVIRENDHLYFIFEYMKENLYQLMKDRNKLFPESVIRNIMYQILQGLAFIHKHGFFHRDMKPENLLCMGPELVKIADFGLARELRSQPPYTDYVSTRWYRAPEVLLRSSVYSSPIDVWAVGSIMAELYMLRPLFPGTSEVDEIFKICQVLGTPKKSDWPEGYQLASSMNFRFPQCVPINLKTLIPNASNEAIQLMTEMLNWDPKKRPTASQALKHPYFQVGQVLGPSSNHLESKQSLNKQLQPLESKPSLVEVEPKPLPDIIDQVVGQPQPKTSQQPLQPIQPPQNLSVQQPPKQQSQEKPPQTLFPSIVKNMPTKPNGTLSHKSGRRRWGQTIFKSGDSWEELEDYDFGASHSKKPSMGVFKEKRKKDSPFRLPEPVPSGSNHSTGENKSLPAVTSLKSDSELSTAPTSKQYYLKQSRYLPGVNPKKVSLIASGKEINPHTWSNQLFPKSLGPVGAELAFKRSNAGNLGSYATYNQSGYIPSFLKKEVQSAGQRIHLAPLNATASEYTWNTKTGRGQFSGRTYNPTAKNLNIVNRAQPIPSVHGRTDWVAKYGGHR
Sequence of UniProt P00519 (whole entry, unmodified, looked up): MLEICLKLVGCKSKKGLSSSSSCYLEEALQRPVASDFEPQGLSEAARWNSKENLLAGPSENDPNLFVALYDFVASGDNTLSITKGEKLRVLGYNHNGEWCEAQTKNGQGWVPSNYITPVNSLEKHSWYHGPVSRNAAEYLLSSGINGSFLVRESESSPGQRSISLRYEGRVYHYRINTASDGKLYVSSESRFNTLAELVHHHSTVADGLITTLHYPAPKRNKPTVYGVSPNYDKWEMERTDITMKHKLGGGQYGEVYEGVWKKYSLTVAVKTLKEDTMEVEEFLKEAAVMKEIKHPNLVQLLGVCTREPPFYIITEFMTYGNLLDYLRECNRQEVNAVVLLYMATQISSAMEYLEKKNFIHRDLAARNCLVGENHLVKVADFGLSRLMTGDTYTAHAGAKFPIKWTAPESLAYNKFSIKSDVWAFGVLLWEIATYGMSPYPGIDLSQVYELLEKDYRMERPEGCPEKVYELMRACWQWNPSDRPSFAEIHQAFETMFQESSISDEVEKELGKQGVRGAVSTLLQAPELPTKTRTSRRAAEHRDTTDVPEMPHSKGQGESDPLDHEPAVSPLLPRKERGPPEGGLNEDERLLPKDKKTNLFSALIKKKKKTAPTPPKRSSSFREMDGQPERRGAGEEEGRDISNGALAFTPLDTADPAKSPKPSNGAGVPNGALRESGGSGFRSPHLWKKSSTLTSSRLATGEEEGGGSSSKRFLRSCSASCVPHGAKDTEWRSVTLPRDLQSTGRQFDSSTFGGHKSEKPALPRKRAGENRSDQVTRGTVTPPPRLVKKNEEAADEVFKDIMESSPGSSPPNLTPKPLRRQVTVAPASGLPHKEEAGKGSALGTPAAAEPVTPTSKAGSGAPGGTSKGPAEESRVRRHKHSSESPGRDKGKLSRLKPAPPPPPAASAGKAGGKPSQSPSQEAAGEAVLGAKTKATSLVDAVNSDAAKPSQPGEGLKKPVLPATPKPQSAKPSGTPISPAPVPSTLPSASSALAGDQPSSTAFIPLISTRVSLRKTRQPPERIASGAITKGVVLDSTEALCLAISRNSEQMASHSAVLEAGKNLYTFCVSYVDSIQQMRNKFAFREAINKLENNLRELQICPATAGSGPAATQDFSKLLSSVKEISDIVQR

Sample 1 — effect on: enzyme activity; mode: inhibitor; method: fluorescence; endpoint: inhibition
SMILES: NC/C(=C\F)COc1ccc(-c2cc(=O)[nH]c(=S)n2CC(N)=O)c(Cl)c1
MPO: Myeloperoxidase (MPO, Homo sapiens, UniProt P05164)
Sequence of UniProt P05164 (whole entry, looked up): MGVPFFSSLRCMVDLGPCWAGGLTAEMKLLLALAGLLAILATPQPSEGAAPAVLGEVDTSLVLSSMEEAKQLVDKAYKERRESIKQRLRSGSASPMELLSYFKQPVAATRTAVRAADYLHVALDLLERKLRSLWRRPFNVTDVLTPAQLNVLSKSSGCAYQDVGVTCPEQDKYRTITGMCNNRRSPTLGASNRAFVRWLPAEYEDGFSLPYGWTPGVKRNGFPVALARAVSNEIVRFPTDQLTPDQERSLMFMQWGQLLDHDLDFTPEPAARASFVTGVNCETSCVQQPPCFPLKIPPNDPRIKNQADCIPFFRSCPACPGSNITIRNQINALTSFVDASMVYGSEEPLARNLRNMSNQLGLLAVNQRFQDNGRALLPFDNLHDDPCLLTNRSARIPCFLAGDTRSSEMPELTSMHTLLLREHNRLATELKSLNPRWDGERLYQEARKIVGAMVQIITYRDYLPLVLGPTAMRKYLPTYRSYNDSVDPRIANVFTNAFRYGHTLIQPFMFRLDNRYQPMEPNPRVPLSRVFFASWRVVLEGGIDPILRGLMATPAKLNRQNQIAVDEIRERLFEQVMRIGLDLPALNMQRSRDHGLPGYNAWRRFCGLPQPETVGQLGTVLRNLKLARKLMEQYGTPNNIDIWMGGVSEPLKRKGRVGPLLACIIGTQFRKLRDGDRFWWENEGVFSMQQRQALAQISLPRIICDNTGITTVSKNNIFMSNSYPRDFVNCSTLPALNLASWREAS
AOC3 (Homo sapiens, UniProt Q16853); 3.333 µM: 99.1%
MPO; 300 pM: -10.4% and -5.37%
MPO; 13.7 nM: 9.81%
MPO; 1.111 µM: 82.3%
MPO; 10 µM: 93.9%
MPO; 800 pM: -7.48% and -2.67%
MPO; 4.6 nM: -5.88%
MPO; 500 pM: -8.51%

Sample 2 — effect on: binding; method: HTRF; tested at: 1.37 nM; endpoint: inhibition
Target: Membrane-associated tyrosine- and threonine-specific cdc2-inhibitory kinase (PKMYT1, Homo sapiens, UniProt Q99640)
Residues (Q99640 1-499): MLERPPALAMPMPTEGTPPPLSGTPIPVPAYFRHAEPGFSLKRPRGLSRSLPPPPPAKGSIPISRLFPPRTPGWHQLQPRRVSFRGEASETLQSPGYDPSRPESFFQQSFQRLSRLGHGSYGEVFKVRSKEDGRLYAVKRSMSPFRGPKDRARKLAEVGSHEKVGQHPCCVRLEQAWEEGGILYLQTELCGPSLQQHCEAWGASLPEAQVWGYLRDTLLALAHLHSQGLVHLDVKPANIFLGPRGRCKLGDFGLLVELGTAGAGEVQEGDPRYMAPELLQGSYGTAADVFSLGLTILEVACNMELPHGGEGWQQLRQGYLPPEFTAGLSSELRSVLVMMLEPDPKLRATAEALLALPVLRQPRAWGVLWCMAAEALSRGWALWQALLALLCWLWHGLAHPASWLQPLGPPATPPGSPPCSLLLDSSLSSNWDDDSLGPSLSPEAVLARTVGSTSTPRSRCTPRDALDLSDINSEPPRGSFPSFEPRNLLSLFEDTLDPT
Cc1ncc(-c2cc3c(N)c(-c4c(C)ccc(O)c4C)cnc3[nH]2)cn1: -9.85% and -6.68%
Cc1ccc(O)c(C)c1-c1cnc2[nH]c(-c3cnc(N4CCC(CCN5CCN(c6cc7c(cc6F)c(N6CCC(=O)NC6=O)nn7C)CC5)CC4)nc3)cc2c1C#N: 22.5% and 20.9%
Cc1ccc(O)c(C)c1-c1cnc2[nH]c(-c3cnc(N4CCC(CN5CCN(c6c(F)cc(NC7CCC(=O)NC7=O)cc6F)CC5)CC4)nc3)cc2c1C#N (racemic): -1.04% and 0.97%
Cc1ccc(O)c(C)c1-c1cnc2[nH]c(-c3cnc(N4CCC5(CC4)CC(N4CCN(c6cc7c(cc6F)c(N6CCC(=O)NC6=O)nn7C)CC4)CO5)nc3)cc2c1C#N (racemic): 15.8% and 16.2%
Cc1ccc(O)c(C)c1-c1cnc2[nH]c(-c3cnc(N4CCC(CN5CCN(c6ccc(NC7CCC(=O)NC7=O)c(F)c6)CC5)CC4)nc3)cc2c1C#N (racemic): 14.2% and 13.9%

Sample 3 — Compound: O=C(Nc1ccccc1)Nc1cccc(Oc2ccc3nccn3n2)c1; tested at: 1 µM; endpoint: remaining binding
NLK (Homo sapiens, UniProt Q9UBE8); binding, competition with immobilised ligand: 78%
EPHA6 (Homo sapiens, UniProt Q9UF33); binding, competition with immobilised ligand: 100%
SIK1 (Homo sapiens, UniProt P57059); binding, competition with immobilised ligand: 100%
TTK (Homo sapiens, UniProt P33981); binding, competition with immobilised ligand: 100%
MAK (Homo sapiens, UniProt P20794); binding: 73%
CDK9 (Homo sapiens, UniProt P50750); binding: 100%
TGFBR1 (Homo sapiens, UniProt P36897); binding, competition with immobilised ligand: 95%
Ribosomal protein S6 kinase alpha-2, N-terminal kinase domain (RPS6KA2, Homo sapiens, UniProt Q15349); binding, competition with immobilised ligand: 91%
ABL1 (Homo sapiens, UniProt P00519, T315I): 100%
STK17A (Homo sapiens, UniProt Q9UEE5); binding: 100%
KIT (Homo sapiens, UniProt P10721, A829P); binding: 88%

Sample 4 — effect on: thermal unfolding; method: differential scanning fluorimetry; tested at: 5.5 µM; reading: higher = more unfolded; endpoint: SYPRO Orange fluorescence
Compound: C[C@@H]1CN(c2ccc(-c3cc(C(=O)NCCOCCOCCOCCOCCNC(=O)/C=C/c4[nH]cc(C(=O)N[C@@H](CC(N)=O)c5ccc(F)c(Cl)c5)c4-c4ccc(Cl)cc4F)ccc3F)cc2NC(=O)c2c[nH]c(=O)cc2C(F)(F)F)C[C@H](C)N1C
DCAF1: DDB1- and CUL4-associated factor 1 (DCAF1, Homo sapiens, UniProt Q9Y4B6)
Sequence of UniProt Q9Y4B6 (whole entry, looked up): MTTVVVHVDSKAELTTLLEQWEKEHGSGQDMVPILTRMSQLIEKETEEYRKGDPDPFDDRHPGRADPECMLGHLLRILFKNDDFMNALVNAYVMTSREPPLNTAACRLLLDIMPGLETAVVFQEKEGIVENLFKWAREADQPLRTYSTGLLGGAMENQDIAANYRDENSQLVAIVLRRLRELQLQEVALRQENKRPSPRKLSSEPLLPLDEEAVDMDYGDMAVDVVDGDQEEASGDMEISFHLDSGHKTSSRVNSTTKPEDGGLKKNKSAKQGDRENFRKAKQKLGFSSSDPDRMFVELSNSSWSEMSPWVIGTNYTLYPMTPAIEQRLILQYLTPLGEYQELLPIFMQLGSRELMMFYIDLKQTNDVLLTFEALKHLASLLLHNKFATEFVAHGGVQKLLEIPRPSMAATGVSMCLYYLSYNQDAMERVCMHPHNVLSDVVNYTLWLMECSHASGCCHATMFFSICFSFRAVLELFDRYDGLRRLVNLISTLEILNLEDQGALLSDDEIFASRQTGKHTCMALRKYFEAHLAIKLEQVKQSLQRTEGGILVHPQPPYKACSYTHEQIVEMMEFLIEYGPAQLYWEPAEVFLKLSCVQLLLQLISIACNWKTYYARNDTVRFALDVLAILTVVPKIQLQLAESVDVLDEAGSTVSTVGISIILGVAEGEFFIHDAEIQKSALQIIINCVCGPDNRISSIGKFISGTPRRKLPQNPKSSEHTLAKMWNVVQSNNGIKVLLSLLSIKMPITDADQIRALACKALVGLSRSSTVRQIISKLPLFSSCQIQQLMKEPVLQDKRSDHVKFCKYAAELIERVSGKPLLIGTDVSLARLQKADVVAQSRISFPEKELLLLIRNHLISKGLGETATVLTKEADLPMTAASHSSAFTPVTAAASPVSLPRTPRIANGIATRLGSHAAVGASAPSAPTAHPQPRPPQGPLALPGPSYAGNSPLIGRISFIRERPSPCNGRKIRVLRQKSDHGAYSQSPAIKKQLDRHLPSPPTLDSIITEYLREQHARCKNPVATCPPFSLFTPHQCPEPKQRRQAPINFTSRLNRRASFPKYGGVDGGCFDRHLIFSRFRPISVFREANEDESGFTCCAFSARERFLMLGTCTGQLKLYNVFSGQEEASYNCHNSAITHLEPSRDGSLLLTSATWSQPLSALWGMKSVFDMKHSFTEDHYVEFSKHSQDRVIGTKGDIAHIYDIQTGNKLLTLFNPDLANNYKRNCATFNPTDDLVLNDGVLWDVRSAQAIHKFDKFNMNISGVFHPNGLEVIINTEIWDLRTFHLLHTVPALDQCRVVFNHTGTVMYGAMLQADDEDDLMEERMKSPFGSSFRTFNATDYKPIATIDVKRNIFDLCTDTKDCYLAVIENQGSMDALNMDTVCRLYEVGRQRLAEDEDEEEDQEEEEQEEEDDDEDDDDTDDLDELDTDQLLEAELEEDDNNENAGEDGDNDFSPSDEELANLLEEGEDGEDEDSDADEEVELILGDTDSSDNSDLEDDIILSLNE
WDR5: WD repeat-containing protein 5 (WDR5, Homo sapiens, UniProt P61964)
DCAF1; 34.6 °C: 10100 a.u.
DCAF1; 63.81 °C: 56300 a.u.
WDR5; 30.6 °C: 12800 a.u.
WDR5; 40 °C: 13800 a.u.
DCAF1; 33.6 °C: 9840 a.u.
WDR5; 80.81 °C: 42700 a.u.
DCAF1; 77.41 °C: 47600 a.u.
DCAF1; 91.01 °C: 34000 a.u.

Some of these lines once more (sample 2):
Cc1ccc(O)c(C)c1-c1cnc2[nH]c(-c3cnc(N4CCC(CCN5CCN(c6cc7c(cc6F)c(N6CCC(=O)NC6=O)nn7C)CC5)CC4)nc3)cc2c1C#N: 22.5% and 20.9%
Cc1ccc(O)c(C)c1-c1cnc2[nH]c(-c3cnc(N4CCC(CN5CCN(c6c(F)cc(NC7CCC(=O)NC7=O)cc6F)CC5)CC4)nc3)cc2c1C#N (racemic): -1.04% and 0.97%
Cc1ccc(O)c(C)c1-c1cnc2[nH]c(-c3cnc(N4CCC5(CC4)CC(N4CCN(c6cc7c(cc6F)c(N6CCC(=O)NC6=O)nn7C)CC4)CO5)nc3)cc2c1C#N (racemic): 15.8% and 16.2%
Cc1ccc(O)c(C)c1-c1cnc2[nH]c(-c3cnc(N4CCC(CN5CCN(c6ccc(NC7CCC(=O)NC7=O)c(F)c6)CC5)CC4)nc3)cc2c1C#N (racemic): 14.2% and 13.9%
Cc1ncc(-c2cc3c(N)c(-c4c(C)ccc(O)c4C)cnc3[nH]2)cn1: -9.85% and -6.68%
